Assay results from different studies.
Numbered parts are unrelated; each lists some results of a single study.

Sample 1 — method: universal PBM; form: double-stranded DNA, one strand shown; matrix: in vitro; tested at: not given; reading: higher = stronger binding
Target: Sal-like protein 4, full length isoform B (SALL4, Homo sapiens, UniProt Q9UJQ4-2, residues 1-616)
Notes: 8-mer, flanks averaged, mean of replicates
With `ACCGTCGT` the E-score was -0.0261.
`ATGGGTCG` gave an E-score of -0.232.
For `AGACTTAA`, the E-score was -0.0189.
For `AGTGGTCA`, the E-score was -0.105.
The E-score of `AATTGTCT` is reported as 0.185.

Sample 2 — method: protein-binding microarray; form: double-stranded DNA, one strand shown; matrix: in vitro; tested at: not given; reading: higher = stronger binding
Target: Microphthalmia-associated transcription factor, full length (MITF, Homo sapiens, UniProt O75030-10, residues 1-413)
Notes: k-mer, scored over probes, only values ≥0.25
Target sequence (chain): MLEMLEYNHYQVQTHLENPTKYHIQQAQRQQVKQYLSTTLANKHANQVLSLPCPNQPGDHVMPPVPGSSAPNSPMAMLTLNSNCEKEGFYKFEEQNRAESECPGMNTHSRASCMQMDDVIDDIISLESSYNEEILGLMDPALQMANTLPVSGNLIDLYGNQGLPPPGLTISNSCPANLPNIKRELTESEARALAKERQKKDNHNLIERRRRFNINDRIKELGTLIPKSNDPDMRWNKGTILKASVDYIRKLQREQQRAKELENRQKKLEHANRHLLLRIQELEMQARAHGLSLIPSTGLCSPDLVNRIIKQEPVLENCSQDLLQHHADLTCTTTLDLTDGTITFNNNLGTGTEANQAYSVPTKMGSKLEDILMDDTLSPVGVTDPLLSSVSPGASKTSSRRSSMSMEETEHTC
`TACATGA` has an E-score of 0.263.
For `CACGTGA`, the E-score was 0.498.
For `ACGTGGG`, the E-score was 0.312.

Sample 3 — method: protein binding microarray; form: double-stranded DNA, one strand shown; matrix: in vitro; tested at: not given; baseline: not given; reading: higher = stronger binding
Target: Histone acetyltransferase KAT6A, winged helix 1, GST fusion (KAT6A, Homo sapiens, UniProt Q92794, residues 1-85)
Notes: 8-mer, flanks averaged, mean of 2 arrays, mostly near background
Construct (chain): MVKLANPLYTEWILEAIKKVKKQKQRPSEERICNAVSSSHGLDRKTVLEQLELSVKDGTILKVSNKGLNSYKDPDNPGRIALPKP
The E-score of `CAGCCCCG` is reported as 0.243.
`CAAGATCG` gave an E-score of 0.069.
With `ATCAGAGG` the E-score was -0.158.
`ATCATTCG` has an E-score of -0.143.

Single results of other studies
The fold induction of `PhoQ, residues 284 288 289 292 302 303 AGGCYF` is reported as 3.46 (PhoP, residues 12 14 15 18 19 SMASL (Escherichia coli, UniProt P23836); Sort-seq, item: YFP reporter; E. coli; PhoQ-PhoP variant library, together with: 10 µM Mg2+; baseline: high Mg2+ state, higher = stronger signaling).
